Published values collected from several papers.
Parts stem from different laboratories: compare values within a part only.
UniProt P9WI81, sequence (whole entry, looked up): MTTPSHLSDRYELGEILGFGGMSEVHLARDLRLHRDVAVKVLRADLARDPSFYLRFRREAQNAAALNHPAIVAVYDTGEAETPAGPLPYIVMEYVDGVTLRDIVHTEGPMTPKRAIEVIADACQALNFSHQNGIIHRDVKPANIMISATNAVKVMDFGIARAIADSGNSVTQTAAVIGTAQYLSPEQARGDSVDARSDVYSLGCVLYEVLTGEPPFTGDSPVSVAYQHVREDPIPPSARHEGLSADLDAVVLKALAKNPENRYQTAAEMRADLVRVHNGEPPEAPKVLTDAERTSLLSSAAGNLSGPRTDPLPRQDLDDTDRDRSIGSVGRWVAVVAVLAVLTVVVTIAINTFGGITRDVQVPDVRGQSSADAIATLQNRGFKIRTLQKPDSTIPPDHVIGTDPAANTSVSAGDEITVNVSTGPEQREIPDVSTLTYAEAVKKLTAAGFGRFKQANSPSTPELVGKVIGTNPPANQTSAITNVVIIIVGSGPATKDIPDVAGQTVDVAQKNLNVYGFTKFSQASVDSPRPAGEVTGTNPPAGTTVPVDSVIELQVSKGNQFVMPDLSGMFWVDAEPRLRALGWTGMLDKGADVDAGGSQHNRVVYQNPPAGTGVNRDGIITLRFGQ
UniProt P61075, sequence (whole entry, looked up): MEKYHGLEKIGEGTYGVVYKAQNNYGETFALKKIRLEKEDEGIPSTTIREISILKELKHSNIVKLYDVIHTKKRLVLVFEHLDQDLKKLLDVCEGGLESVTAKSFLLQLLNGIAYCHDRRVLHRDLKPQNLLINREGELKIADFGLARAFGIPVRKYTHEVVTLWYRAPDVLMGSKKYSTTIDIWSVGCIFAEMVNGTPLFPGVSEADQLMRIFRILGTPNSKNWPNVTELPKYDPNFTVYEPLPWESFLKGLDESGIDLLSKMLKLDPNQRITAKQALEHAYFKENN

Set 1 — host: human; sample: microsomes or S9; tested at: 2 µM; time: 0.5 h
`CC(C)(CO)CCCNC(=O)N1CCC2(CC1)OCCO2` has a remaining compound of over 99%.
`Cc1ccc(C2NCc3ccccc3-n3cccc32)c(C)c1` (centres unmarked) gave a remaining compound of 34%.
For `COc1cc(=O)n(-c2ccc(C#N)c(Cl)c2C)nc1C`, the remaining compound was 74.6%.

Set 2 — read-out: enzyme activity; action: inhibitor; method: radiometric; tested at: 0.5 µM
Target: Dual specificity tyrosine-phosphorylation-regulated kinase 1B (DYRK1B, Homo sapiens, UniProt Q9Y463)
`Cc1cn(-c2cc(NC(=O)c3ccc(C)c(Nc4nccc(-c5cccnc5)n4)c3)cc(C(F)(F)F)c2)cn1` has a remaining activity of 92.8%.
For `CN(C)C[C@H]1CCn2c(c(C3=C(c4cn(C)c5ccccc45)C(=O)NC3=O)c3ccccc32)C1`, the remaining activity was 92.2%.
With `Ic1cccc(CSc2nnc(-c3ccncc3)o2)c1` the remaining activity was 96.7%.
`Cn1nc2c3c(cccc31)C(=O)c1ccccc1-2` gave a remaining activity of 93.1%.
For `N#Cc1c(NC(=O)c2cccc3ccccc23)sc2c1CCCC2`, the remaining activity was 101%.
For `Cc1nc2cc3nc(-c4cccs4)cnc3cc2n1C`, the remaining activity was 102%.
`CCN(CC)CCNC(=O)c1c(C)[nH]c(/C=C2\C(=O)Nc3ccc(F)cc32)c1C` has a remaining activity of 60%.
The remaining activity of `O=C1c2ccccc2-c2n[nH]c3cccc1c23` is reported as 65.7%.
With `Cc1cc2ncc(-c3ccccc3)nc2cc1C` the remaining activity was 106%.
`c1ccc(-c2[nH]ncc2-c2ccnc3ccccc23)nc1` gave a remaining activity of 102%.
`CCN(CC)CCNC(=O)c1c(C)[nH]c(/C=C2\C(=O)Nc3ccc(Cl)cc32)c1C` gave a remaining activity of 47.5%.
`COc1cc(OC)c(C=C2C(O)=Nc3ccccc32)c(OC)c1` gave a remaining activity of 99%.
`O=C1Nc2ccc(Cl)cc2C1=Cc1cc(Cl)c(O)c(Cl)c1` gave a remaining activity of 90.9%.
For `O=C(Nc1cccc(Nc2nccc(Nc3cccc(C(F)(F)F)c3)n2)c1)C1CC1`, the remaining activity was 96.3%.
For `COc1cc2ncnc(Nc3cccc(Cl)c3)c2cc1OC`, the remaining activity was 104%.

Set 3 — cell line: mouse MPNST tumor cells; method: high-content nuclear imaging; refers to: cell number; tested at: 10 µM; time: 12 h; setting: mean of 2 replicates; baseline: plate mean; direction: higher = more cells
The nuclei count of `C=CCN1C[C@H](C(=O)N(CCCN(C)C)C(=O)NCC)C[C@@H]2c3cccc4[nH]cc(c34)C[C@H]21` is reported as 2.54 z-score.
With `O=C1CSC(c2ccccc2Cl)c2cc(Cl)ccc2N1` (centres unmarked) the nuclei count was 1.82 z-score.
`CN(C)C1C(=O)C(C(N)=O)=C(O)C2(O)C(=O)C3=C(O)c4c(O)cccc4C(C)(O)C3CC12` (centres unmarked) gave a nuclei count of 1.82 z-score.
`CNC(=O)Oc1ccc2c(c1)[C@]1(C)CCN(C)[C@@H]1N2C` gave a nuclei count of 0.132 z-score.

Set 4 — read-out: enzyme activity; action: inhibitor; tested at: 10 µM
Target: Calcium/calmodulin-dependent protein kinase type II subunit alpha (CAMK2A, Homo sapiens, UniProt Q9UQM7)
UniProt Q9UQM7, sequence (whole entry, looked up): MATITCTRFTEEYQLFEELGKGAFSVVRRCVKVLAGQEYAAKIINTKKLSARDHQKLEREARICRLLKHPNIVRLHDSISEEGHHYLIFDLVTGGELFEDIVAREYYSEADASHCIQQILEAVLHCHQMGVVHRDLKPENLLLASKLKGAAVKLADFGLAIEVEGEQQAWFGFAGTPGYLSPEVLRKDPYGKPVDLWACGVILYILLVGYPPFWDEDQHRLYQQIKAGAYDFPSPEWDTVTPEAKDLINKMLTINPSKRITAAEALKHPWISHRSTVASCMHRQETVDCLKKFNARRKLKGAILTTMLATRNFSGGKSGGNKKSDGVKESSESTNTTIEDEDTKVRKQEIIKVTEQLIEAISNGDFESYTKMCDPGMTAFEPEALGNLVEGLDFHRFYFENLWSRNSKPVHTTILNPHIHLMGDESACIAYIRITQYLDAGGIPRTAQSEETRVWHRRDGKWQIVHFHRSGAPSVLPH
For `CCCCOC(=O)c1ccccc1C(=O)OCC(C)C`, the inhibition was 6%.
For `CC(=O)O[C@@]12CO[C@@H]1C[C@H](O)[C@@]1(C)C(=O)[C@H](O)C3=C(C)[C@@H](O)C[C@@](O)([C@@H](OC(=O)c4ccccc4)[C@H]21)C3(C)C`, the inhibition was 32%.
For `COCc1c(CO)cnc(C)c1O`, the inhibition was -5%.
The inhibition of `N[C@@H](CNC(=O)C(=O)O)C(=O)O` is reported as 3%.

Mixed results
CDPK1: Calcium-dependent protein kinase 1 (CDPK1, Plasmodium falciparum, UniProt P62344)
UniProt P62344, sequence (whole entry, looked up): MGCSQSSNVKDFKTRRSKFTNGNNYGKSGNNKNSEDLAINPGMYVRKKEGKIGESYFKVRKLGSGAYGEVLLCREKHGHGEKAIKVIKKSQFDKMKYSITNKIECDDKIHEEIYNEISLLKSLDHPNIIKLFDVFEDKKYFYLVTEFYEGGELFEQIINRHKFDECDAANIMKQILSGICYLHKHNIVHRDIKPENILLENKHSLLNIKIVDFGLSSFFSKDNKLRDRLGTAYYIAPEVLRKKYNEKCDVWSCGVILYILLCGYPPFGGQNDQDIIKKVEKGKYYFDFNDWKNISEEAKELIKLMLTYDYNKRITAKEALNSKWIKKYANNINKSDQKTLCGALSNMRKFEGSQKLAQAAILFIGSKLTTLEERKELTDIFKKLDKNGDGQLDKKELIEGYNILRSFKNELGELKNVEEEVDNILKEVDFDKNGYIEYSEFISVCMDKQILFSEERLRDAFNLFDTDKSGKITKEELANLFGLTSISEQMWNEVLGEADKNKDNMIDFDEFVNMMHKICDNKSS
With `O=C(N[C@H]1CCCCC/C=C\C2C[C@@]2(C(=O)O)NC(=O)[C@@H]2C[C@@H](Oc3ccncc3)CN2C1=O)OC1CCCC1` (some centres unmarked) the remaining binding was 93% (Serine/threonine-protein kinase PknB (pknB, Mycobacterium tuberculosis, UniProt P9WI81); cell-free assay, competition with immobilised ligand; 1 µM).
`C=CC[C@]1(O)CC[C@H]2[C@@H]3CCC4=CC(=O)CCC4=C3C=C[C@@]21C` gave a viability of 50.1% (A-375; 100 µM, 18 h).
For `O=C(Nc1ccc(Oc2ccc(F)cc2)cc1)N1CCc2ncccc2[C@H]1c1ccc(F)cc1`, the remaining binding was 96% (CDPK1; cell-free assay, competition with immobilised ligand; 1 µM).
`C[C@]1(O)CC[C@H]2[C@@H]3CCC4=CC(=O)CC[C@]4(C)[C@@]3(F)[C@@H](O)C[C@@]21C` has a viability of 93.7% (A-375; 100 µM, 18 h).
`C[C@H](c1ccc(F)cc1)N(Cc1cccc(C(=O)O)c1)C(=O)c1cnc2ccccc2c1` has a remaining binding of 100% (CDPK1; cell-free assay, competition with immobilised ligand; 1 µM).
With `CCOCCn1cc(C(=O)Nc2ccc(-n3nc(-c4cccnc4)cc3C(F)(F)F)cn2)ccc1=O` the remaining binding was 86% (Cyclin-dependent kinase 2 homolog (CRK2, Plasmodium falciparum, UniProt P61075); cell-free assay, competition with immobilised ligand; 1 µM).

Some of these lines once more (set 3):
`CN(C)C1C(=O)C(C(N)=O)=C(O)C2(O)C(=O)C3=C(O)c4c(O)cccc4C(C)(O)C3CC12` (centres unmarked) gave a nuclei count of 1.82 z-score.
With `O=C1CSC(c2ccccc2Cl)c2cc(Cl)ccc2N1` (centres unmarked) the nuclei count was 1.82 z-score.
`CNC(=O)Oc1ccc2c(c1)[C@]1(C)CCN(C)[C@@H]1N2C` gave a nuclei count of 0.132 z-score.
The nuclei count of `C=CCN1C[C@H](C(=O)N(CCCN(C)C)C(=O)NCC)C[C@@H]2c3cccc4[nH]cc(c34)C[C@H]21` is reported as 2.54 z-score.
